Published values of several laboratories.
Every numbered part comes from another study and shows a few of its results, in no order. Positions count from the first letter of the parent shown.
Chain of UniProt Q9C5W9 (whole entry, looked up): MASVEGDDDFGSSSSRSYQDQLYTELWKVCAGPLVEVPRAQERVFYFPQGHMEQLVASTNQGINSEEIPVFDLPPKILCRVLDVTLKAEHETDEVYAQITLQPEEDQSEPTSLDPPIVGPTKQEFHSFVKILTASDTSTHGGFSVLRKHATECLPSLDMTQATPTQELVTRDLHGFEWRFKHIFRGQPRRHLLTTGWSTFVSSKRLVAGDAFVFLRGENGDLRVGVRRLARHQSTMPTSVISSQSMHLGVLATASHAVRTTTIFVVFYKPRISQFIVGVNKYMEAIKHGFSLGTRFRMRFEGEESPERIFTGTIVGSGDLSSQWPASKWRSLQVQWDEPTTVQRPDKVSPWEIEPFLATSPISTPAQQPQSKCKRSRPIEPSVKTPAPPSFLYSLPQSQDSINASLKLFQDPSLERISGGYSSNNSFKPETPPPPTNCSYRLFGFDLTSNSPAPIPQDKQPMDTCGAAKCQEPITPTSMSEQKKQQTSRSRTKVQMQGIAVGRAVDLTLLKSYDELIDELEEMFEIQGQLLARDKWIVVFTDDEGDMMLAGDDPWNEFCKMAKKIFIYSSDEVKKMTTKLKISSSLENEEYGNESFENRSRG
Chain of UniProt P49459 (whole entry, looked up): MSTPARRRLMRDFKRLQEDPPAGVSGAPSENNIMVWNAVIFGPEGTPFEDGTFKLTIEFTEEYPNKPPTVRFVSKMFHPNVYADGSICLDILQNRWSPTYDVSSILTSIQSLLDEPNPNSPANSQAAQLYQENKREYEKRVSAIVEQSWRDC
Chain of UniProt Q84WU6 (whole entry, looked up): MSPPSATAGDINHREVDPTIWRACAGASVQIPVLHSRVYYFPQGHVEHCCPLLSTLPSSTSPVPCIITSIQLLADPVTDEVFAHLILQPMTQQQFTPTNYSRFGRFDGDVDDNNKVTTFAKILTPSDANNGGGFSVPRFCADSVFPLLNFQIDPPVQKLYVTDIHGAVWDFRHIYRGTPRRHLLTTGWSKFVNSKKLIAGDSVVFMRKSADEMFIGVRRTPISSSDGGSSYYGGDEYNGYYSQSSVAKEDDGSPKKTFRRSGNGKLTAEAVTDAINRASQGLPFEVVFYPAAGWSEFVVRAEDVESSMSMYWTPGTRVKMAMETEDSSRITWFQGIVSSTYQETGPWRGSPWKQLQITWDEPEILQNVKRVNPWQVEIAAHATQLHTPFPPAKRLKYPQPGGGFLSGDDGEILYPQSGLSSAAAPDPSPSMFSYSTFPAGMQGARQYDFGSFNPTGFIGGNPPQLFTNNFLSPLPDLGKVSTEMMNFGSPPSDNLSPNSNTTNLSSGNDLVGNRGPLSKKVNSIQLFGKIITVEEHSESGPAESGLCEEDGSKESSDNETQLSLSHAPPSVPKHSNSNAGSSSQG

Block 1
Target: CCNA2, cyclin fold, Cln2 fusion (human)
Technique: yeast growth competition, sequencing
Matrix: yeast
Setting: strong parent motif
Baseline: not given
Direction: higher = stronger binding
Endpoint: normalised enrichment score
Starting sequence: PKN2 docking peptide (human); VSAVQKLDFSDTM
Variant = S10N; result = 1.4
Variant = T12E; result = 3.24
Variant = D8C; result = 1.56
Variant = D11A; result = 2.09
Variant = M13W; result = 2.28
Variant = L7C; result = 0.135
Variant = A3T; result = -0.0364
Variant = S10P; result = 1.18

Block 2
Target: Protein C-ets-1 (ETS1, Homo sapiens, UniProt P14921, residues 1-441, full length assumed)
Technique: protein-binding microarray
Molecule type: double-stranded DNA, one strand shown
Matrix: in vitro
Concentration: not given
Setting: k-mer, scored over probes, only values ≥0.25
Direction: higher = stronger binding
Endpoint: E-score
Construct (chain): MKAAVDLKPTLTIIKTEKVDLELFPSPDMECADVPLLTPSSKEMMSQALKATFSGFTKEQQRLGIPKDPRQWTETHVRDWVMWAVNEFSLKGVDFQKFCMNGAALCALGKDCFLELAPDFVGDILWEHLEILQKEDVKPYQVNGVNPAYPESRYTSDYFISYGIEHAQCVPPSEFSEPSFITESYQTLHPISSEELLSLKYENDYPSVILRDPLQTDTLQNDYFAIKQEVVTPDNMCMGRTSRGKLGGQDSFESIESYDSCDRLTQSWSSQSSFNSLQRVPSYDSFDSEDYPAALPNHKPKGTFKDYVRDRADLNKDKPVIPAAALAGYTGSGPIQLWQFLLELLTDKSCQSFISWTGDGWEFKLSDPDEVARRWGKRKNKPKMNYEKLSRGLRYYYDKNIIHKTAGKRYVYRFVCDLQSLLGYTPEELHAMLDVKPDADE
Sequence = CATCCTGC; result = 0.456
Sequence = ACCATCCG; result = 0.404
Sequence = AGGCGGGG; result = 0.252
Sequence = GAAGTGCC; result = 0.319
Sequence = CGGATCTA; result = 0.263
Sequence = GCGGAACC; result = 0.339
Sequence = CGGACATC; result = 0.364
Sequence = CACCATCC; result = 0.306

Mixed results
B1: SH3RF1 RING domain (UniProt Q7Z6J0); chain DESALLDLLECPVCLERLDASAKVLPCQHTFCKRCLLGIVGSRNELRCPECRTLVGSGVEEL
Molecule = ARF17 (Arabidopsis thaliana, UniProt Q84WU6); target or system = ARF18 482-602 (Arabidopsis thaliana, UniProt Q9C5W9); assay = two-hybrid; conditions = weak activation fusion; how to read = baseline: out of 4 tests, higher = firmer interaction; endpoint = positive tests; result = 0
Molecule = B1 (SH3RF1 RING domain); target or system = UBE2A UBC core domain (UniProt P49459); assay = yeast two-hybrid; test system = yeast; conditions = mostly zero background; how to read = baseline: not given, higher = stronger interaction; endpoint = lacZ reporter activity; result = 0

For quick reference, copied from above (block 1):
Variant = D11A; result = 2.09
